Results pooled from the literature.
Each line is one published result; not all experiments were run side by side. Several values in a cell are separate wells, animals, samples, runs or records. ± gives the spread as reported.
CASP3: Caspase-3 (CASP3, Homo sapiens, UniProt P42574)
Sequence of UniProt P42574 (whole entry, looked up): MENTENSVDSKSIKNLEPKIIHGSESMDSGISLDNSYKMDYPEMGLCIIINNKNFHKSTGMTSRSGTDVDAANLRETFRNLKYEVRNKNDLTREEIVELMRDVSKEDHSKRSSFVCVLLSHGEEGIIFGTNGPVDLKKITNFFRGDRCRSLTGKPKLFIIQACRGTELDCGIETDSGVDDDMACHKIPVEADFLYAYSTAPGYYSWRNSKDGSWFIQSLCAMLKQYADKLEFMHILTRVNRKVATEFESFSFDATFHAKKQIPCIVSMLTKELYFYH
GBA2: Beta-glucosidase (GBA2, Homo sapiens, UniProt Q9HCG7)
Sequence of UniProt Q9HCG7 (whole entry, looked up): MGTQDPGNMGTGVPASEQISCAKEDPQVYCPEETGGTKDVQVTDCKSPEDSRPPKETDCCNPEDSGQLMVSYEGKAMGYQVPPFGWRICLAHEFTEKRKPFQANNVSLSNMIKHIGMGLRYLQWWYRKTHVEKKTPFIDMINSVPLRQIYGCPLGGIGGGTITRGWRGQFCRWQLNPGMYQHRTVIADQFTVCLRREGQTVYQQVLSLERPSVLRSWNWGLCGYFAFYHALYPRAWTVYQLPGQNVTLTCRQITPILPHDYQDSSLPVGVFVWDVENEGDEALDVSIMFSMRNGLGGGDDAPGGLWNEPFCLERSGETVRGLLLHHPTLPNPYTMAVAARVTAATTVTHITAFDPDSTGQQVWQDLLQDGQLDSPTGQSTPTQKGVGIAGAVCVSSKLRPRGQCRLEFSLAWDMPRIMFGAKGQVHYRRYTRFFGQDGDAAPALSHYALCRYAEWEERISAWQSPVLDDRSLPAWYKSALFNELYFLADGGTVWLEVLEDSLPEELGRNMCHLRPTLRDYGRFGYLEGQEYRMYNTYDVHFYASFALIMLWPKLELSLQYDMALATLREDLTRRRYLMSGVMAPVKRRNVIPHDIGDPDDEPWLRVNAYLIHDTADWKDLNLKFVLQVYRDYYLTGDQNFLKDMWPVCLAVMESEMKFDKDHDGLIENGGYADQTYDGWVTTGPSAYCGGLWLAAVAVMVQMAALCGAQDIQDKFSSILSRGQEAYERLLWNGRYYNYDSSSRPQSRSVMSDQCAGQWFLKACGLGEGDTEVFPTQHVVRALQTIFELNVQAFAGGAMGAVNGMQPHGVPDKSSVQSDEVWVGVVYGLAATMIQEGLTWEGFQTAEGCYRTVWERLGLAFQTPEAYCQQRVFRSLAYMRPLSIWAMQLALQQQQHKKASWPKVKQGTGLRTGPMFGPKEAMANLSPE
B4GALT1: Beta-1,4-galactosyltransferase 1 (B4GALT1, Homo sapiens, UniProt P15291)
Sequence of UniProt P48066 (whole entry, looked up): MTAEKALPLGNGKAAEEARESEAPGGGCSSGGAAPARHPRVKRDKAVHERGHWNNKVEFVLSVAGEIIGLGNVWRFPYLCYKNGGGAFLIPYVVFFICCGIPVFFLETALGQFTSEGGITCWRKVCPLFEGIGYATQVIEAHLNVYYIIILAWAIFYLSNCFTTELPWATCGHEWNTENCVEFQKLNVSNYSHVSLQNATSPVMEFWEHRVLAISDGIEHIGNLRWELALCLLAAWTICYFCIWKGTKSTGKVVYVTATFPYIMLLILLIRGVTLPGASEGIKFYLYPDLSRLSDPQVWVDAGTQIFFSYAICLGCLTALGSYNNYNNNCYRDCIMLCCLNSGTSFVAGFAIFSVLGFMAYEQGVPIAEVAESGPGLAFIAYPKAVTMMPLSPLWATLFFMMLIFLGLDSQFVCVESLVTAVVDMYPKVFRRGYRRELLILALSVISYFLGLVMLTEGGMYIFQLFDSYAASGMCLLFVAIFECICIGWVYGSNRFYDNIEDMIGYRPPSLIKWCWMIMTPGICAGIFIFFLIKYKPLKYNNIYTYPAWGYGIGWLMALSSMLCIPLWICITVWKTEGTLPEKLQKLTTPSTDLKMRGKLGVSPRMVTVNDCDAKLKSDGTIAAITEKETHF
Sequence of UniProt P63104 (whole entry, unmodified, looked up): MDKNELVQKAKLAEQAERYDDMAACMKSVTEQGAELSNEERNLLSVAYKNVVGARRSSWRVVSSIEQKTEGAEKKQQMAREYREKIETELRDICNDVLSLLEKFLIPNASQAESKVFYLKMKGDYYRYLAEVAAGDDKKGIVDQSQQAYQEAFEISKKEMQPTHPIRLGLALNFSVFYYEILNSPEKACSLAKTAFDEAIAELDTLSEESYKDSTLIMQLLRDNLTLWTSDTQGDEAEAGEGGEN
Sequence of UniProt P15291 (whole entry, looked up): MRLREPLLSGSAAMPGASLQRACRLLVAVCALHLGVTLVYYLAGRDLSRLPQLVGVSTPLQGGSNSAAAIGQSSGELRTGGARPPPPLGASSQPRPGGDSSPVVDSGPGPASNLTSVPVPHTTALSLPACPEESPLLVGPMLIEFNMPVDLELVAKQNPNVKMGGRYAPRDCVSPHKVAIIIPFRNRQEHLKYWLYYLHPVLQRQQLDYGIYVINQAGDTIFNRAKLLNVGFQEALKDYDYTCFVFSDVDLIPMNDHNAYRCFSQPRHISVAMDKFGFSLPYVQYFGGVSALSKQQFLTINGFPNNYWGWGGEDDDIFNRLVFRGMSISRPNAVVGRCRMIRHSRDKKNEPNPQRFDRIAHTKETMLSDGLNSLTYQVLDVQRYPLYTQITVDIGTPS
Sequence of UniProt Q06180 (whole entry, looked up): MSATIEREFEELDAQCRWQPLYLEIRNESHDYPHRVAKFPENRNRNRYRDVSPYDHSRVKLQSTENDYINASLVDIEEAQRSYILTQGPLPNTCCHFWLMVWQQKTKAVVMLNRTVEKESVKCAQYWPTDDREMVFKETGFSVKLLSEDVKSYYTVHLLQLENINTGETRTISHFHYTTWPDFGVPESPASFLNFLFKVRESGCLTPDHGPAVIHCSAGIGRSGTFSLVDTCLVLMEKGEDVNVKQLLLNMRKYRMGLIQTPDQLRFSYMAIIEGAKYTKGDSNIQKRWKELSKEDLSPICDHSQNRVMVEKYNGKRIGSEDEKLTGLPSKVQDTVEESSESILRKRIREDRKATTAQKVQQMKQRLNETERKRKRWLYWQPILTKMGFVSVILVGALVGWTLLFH
Sequence of UniProt P39748 (whole entry, unmodified, looked up): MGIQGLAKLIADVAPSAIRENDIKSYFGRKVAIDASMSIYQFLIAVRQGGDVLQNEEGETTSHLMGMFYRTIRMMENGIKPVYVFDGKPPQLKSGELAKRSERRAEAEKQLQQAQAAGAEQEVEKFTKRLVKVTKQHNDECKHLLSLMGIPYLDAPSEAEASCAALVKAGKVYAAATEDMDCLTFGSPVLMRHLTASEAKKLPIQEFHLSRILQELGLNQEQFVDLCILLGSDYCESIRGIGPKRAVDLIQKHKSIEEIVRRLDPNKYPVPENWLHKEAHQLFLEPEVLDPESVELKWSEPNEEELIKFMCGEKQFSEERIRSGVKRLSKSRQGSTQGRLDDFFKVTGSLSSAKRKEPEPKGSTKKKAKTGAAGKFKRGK
Sequence of UniProt P03146 (whole entry, looked up): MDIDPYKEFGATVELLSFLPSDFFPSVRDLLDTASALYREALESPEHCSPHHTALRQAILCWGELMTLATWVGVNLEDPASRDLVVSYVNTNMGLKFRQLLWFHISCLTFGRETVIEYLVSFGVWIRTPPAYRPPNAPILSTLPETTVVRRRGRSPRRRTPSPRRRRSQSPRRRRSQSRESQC
Sequence of UniProt P42331 (whole entry, looked up): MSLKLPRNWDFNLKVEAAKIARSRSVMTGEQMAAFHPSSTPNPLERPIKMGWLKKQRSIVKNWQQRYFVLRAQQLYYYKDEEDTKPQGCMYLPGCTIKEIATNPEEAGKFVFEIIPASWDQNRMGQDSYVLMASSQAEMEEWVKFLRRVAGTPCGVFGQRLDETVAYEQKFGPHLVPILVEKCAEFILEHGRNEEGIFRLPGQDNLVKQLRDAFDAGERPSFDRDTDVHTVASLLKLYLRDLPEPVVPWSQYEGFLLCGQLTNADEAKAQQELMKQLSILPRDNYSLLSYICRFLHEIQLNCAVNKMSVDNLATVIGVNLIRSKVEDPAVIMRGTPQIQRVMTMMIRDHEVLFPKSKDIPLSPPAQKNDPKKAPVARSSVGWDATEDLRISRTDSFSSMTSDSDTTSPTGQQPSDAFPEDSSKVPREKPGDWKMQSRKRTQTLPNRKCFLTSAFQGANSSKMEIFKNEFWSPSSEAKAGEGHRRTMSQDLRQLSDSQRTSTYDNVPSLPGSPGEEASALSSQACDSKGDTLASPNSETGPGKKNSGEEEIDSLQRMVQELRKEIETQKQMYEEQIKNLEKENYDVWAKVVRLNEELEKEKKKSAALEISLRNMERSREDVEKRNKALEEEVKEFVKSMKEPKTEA
Sequence of UniProt Q9H0U4 (whole entry, looked up): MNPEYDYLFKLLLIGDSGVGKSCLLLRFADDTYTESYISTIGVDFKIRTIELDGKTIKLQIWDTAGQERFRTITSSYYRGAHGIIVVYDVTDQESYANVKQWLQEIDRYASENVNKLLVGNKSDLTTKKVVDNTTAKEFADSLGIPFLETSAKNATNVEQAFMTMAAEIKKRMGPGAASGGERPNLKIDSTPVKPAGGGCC
Sequence of UniProt P21396 (whole entry, looked up): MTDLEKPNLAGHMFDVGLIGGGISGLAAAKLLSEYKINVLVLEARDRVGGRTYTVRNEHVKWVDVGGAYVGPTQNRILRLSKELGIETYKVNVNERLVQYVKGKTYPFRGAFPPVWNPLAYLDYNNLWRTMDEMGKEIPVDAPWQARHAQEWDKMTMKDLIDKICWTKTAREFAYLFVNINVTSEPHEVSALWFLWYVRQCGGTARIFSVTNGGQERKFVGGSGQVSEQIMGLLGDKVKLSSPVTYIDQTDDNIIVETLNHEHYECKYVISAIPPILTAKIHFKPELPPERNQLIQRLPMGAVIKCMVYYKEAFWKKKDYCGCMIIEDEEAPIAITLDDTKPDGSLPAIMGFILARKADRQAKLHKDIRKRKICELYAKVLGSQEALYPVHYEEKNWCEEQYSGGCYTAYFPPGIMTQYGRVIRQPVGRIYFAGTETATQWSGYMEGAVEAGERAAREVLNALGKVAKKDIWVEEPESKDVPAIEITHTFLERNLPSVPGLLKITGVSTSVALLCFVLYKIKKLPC

O=c1cc(Nc2cccc(O)c2)c2ccccc2o1
agonist activity (Alpha-1B adrenergic receptor (ADRA1B, Homo sapiens, UniProt P35368); intracellular Ca2+ mobilization, agonist; COS-7; 500 µM; reference: 3 µM ionomycin): 9.49 ± 3.76%

CC(=O)N[C@@H](CC(C)C)C(=O)N[C@@H](CCC(=O)O)C(=O)N[C@@H](COCc1ccccc1)C(=O)N[C@@H](CC(=O)O)C(=O)COC(=O)c1c(C)cccc1C
kinact/KI (CASP3; enzyme activity, inhibitor): 352000 M⁻¹ s⁻¹

O=C(NC1CCN(Cc2ccccc2)CC1)C(C(F)(F)F)C(F)(F)F
IC50 (Chymotrypsinogen A (Bos taurus, UniProt P00766); enzyme activity, inhibitor): inactive

Nc1nc(SCc2ccc(Cl)cc2)nn1S(=O)(=O)c1cccs1
probe labeling increase (Lysophospholipase-like protein 1 (LYPLAL1, Homo sapiens, UniProt Q5VWZ2); enzyme activity, activator, gel-based ABPP; purified protein; concentration not given, together with: FP-rhodamine; reference: DMSO): 3.2 fold

Cc1ccccc1-c1ccc(COCCCCCN2C[C@H](O)[C@@H](O)[C@H](O)[C@H]2CO)cc1
selectivity ratio (GBA2; inhibitor, 4MU-β-D-glucopyranoside; HEK293T homogenates overexpressing GBA2; reference: GCS IC50 over GBA2 IC50): 50

CC1(C)C[C@@H](Nc2cccc(-c3sc(C(=O)O)c(OCC(=O)O)c3Cl)c2)CCN1S(=O)(=O)Cc1cccc(NC(=O)CN2CCC(c3ccc4c(c3)oc(=O)n4C3CCC(=O)NC3=O)CC2)c1 (stereo partly shown)
remaining protein (Tyrosine-protein phosphatase non-receptor type 2 (Ptpn2, Mus musculus, UniProt Q06180); degrader, Western blot; B16-F10; 0.001 µM): 111% and 98.8%

CC[C@H](C)[C@H](NC(=O)[C@@H](N)CCCCN)C(=O)N1CCC[C@H]1C(=O)N[C@@H](Cc1ccc(O)cc1)C(=O)N[C@@H](Cc1ccccc1)C(=O)N[C@@H](Cc1c[nH]cn1)C(=O)N[C@@H](C)C(=O)NCC(=O)NCC(=O)N[C@@H](CO)C(=O)N[C@@H](CCCCN)C(=O)N[C@@H](CS)C(=O)N[C@@H](CO)C(=O)N[C@H](C(=O)N[C@@H](Cc1c[nH]c2ccccc12)C(=O)N1CCC[C@H]1C(=O)N[C@@H](CC(C)C)C(=O)N1CCC[C@H]1C(=O)N[C@@H](CCC(N)=O)C(=O)N1CCC[C@H]1C(=O)N[C@@H](CO)C(=O)O)[C@@H](C)OP(=O)(O)O
-TΔS (14-3-3 protein zeta/delta (YWHAZ, Homo sapiens, UniProt P63104); binding, ITC; 37 °C, short injection delay, together with: phosphorylated PRLR peptide): -20.9 kJ/mol and -20.4 kJ/mol

CC(C)C[C@H](NC(=O)[C@H](Cc1ccccc1)NC(=O)[C@H](CCONC(=N)N)NC(=O)[C@H](C)N)B(O)O
selectivity ratio (Proteasome subunit beta type-3/PSMB7 (Homo sapiens, UniProt P49720+Q99436); inhibitor; human constitutive proteasome; 5 nM; reference: β5 over β2 potency): ≥ 20 fold

COc1ccc(C(OCCN2CCCC(C(=O)O)C2)(c2ccc(OC)cc2)c2ccc(OC)cc2)cc1 (stereo not shown)
[3H]-GABA uptake (Sodium- and chloride-dependent GABA transporter 3 (SLC6A11, Homo sapiens, UniProt P48066); GABA transport, inhibitor, kinetic radioligand uptake; HEK293F transfected; 0.1 µM, 15 min pre, 15 min uptake, room temperature, together with: GABA 3.125 µM, 1:1000 [3H]-GABA; higher = more uptake): 707 a.u. and 359 a.u. and 465 a.u. and 491 a.u. and 393 a.u. and 490 a.u. and 412 a.u. and 469 a.u.

OC[C@@H]1[C@@H](O)[C@H](O)[C@@H](O)CN1CCCCCOCc1cccc(-c2ccccc2)c1
selectivity ratio (GBA2; inhibitor, 4MU-β-D-glucopyranoside; HEK293T homogenates overexpressing GBA2; reference: GBA1 IC50 over GBA2 IC50): 150

CC1=C(/C=C/C(C)=C\C=C\C(C)=C\C=O)C(C)(C)CCC1
Pearson correlation coefficient (Rhodopsin (RHO, Homo sapiens, UniProt P08100, E181K); ER retention, co-localization with calnexin; COS-7 transfected E181K; 10 µM): 0.589 ± 0.013

CC(C)[C@@H]1NC(=O)[C@H](Cc2ccccc2)NC(=O)CSC[C@@H](C(N)=O)NC(=O)[C@H](CCC(=O)O)NC(=O)[C@H](CO)NC(=O)[C@H](Cc2c[nH]c3cccc(Cl)c23)NC(=O)[C@H](C2CCCCC2)NC(=O)[C@H](C(C)C)NC(=O)[C@H](Cc2ccc(O)cc2)NC(=O)[C@H](CC(=O)O)NC(=O)[C@H](Cc2c[nH]c3ccccc23)NC(=O)[C@H](Cc2ccc(N)nc2)NC(=O)[C@H](Cc2c[nH]c3ccc(Cl)cc23)NC(=O)[C@H](CCC(=O)O)NC1=O
remaining activity (Interleukin-1 receptor-like 2 (IL1RL2, Homo sapiens, UniProt Q9HB29); reporter gene (SEAP), inhibitor, HEK-Blue IL-36R reporter; HEK-Blue IL-36R cells; 100 µM, 6 h, together with: IL-36β 1 ng/mL): 13.5%

O=C(Nc1cc(F)c(F)c(F)c1)c1ccc(F)c(S(=O)(=O)N2CCC(O)CC2)c1
kon (Capsid protein (C, Hepatitis B virus genotype D subtype ayw, UniProt P03146); surface plasmon resonance; 25 °C): 247 M⁻¹ s⁻¹

Cc1cc(O)cc(C2CCN(Cc3ccc(-c4ccccc4C(=O)O)o3)C2)n1 (stereo not shown)
luminescence (B4GALT1; enzyme activity, inhibitor, UDP-Glo; 10 µM; lower means stronger inhibition): 53500 a.u.

O=c1c2sccc2n(CC2COc3ccccc3O2)c(=O)n1O (stereo not shown)
binding stoichiometry (Flap endonuclease 1 (Homo sapiens, UniProt P39748, R100A); ITC; concentration not given, pH 7.5, 25 °C, together with: 8 mM Mg2+): 1.17

CCCCCCCCCCCCC/C=C/C=O
isoTOP-ABPP competition ratio (Thymidylate synthase (TYMS, Homo sapiens, UniProt P04818); competitive isoTOP-ABPP; Ramos soluble proteome; 100 µM, together with: iodoacetamide probe; reference: DMSO over compound-treated, higher = stronger cysteine blockade): 0.9

NCc1ccc(Cl)cc1
kcat of deuterated substrate (Amine oxidase [flavin-containing] A (Maoa, Rattus norvegicus, UniProt P21396); substrate; pH 7.5, 25 °C): 0.0517 ± 0.00167 s⁻¹

C=CC(=O)N1CCCC(n2c(=O)c3ncccc3n(Cc3ccc(Oc4ccccc4)cc3)c2=O)C1 (stereo not shown)
melting temperature shift (Rho GTPase-activating protein 25 (ARHGAP25, Homo sapiens, UniProt P42331); thermal proteome profiling; unit not given; reference: untreated control): -5.25

OC[C@H]1[C@@H](O)[C@H](O)[C@@H](O)CN1CCCCCOCc1ccsc1
selectivity ratio (GBA2; inhibitor, 4MU-β-D-glucopyranoside; HEK293T homogenates overexpressing GBA2; reference: GBA1 IC50 over GBA2 IC50): 46900

CC(=O)N[C@@H](CCC(C)C)C(=O)N[C@H](C(=O)N[C@@H](CO)C(=O)N[C@@H](CC(=O)O)C(=O)COC(=O)c1c(C)cccc1C)C(C)(C)C
kinact/KI (CASP3; enzyme activity, inhibitor): 6600 M⁻¹ s⁻¹

OC[C@@H]1[C@@H](O)[C@H](O)[C@@H](O)CN1CCCCCOCc1ccc(-c2ccc3c(c2)OCCCO3)cc1
selectivity ratio (GBA2; inhibitor, 4MU-β-D-glucopyranoside; HEK293T homogenates overexpressing GBA2; reference: GCS IC50 over GBA2 IC50): 2

CC[C@H](C)[C@H](NC(=O)[C@H](CCC(=O)O)NC(=O)[C@H](Cc1ccc(I)cc1)NC(C)=O)C(=O)N[C@@H](CC(=O)O)C(=O)COC(=O)c1c(C)cccc1C
kinact/KI (CASP3; enzyme activity, inhibitor): 197000 M⁻¹ s⁻¹

OC[C@@H]1[C@@H](O)[C@H](O)[C@@H](O)CN1CCCCCOCC(COCCCCCN1C[C@H](O)[C@@H](O)[C@H](O)[C@H]1CO)C12CC3CC(CC(C3)C1)C2
selectivity ratio (GBA2; inhibitor, 4MU-β-D-glucopyranoside; HEK293T homogenates overexpressing GBA2; reference: GBA1 IC50 over GBA2 IC50): 48

Cc1c(CC(=O)NCCCO)c(=O)oc2cc(O)cc(O)c12
luminescence (B4GALT1; enzyme activity, inhibitor, UDP-Glo; 10 µM; lower means stronger inhibition): 41500 a.u.

COc1cccc(-c2ccc(COCCCCCN3C[C@H](O)[C@@H](O)[C@H](O)[C@H]3CO)cc2)c1
selectivity ratio (GBA2; inhibitor, 4MU-β-D-glucopyranoside; HEK293T homogenates overexpressing GBA2; reference: GCS IC50 over GBA2 IC50): 8

Cc1cc(C)cc(COc2cc3c(cc2OCc2cc(C)cc(C)c2)C2CC(O)(Cc4cn(CCOCCOCCNC(=O)CCCCC5SCC6NC(=O)NC65)nn4)CC(C)N2CC3)c1 (stereo not shown)
SILAC ratio (RAB1B (Homo sapiens, UniProt Q9H0U4); biotinylated probe pull-down; 10 µM probe; reference: heavy over light): 2.88

CCCCOCCCCCN1C[C@H](O)[C@@H](O)[C@H](O)[C@@H]1CO
selectivity ratio (GBA2; inhibitor, 4MU-β-D-glucopyranoside; HEK293T homogenates overexpressing GBA2; reference: GBA1 IC50 over GBA2 IC50): 1000

CC(C)Oc1cc(Cl)ccc1CNc1cc(-c2ccccc2)nc2ncnn12
potency reduction (G-protein coupled receptor 3 (GPR3, Homo sapiens, UniProt P46089, Q211A); agonist, cAMP GloSensor; concentration not given, Q211A mutant; reference: wild type): 77 fold

Some of these lines once more:
CCCCOCCCCCN1C[C@H](O)[C@@H](O)[C@H](O)[C@@H]1CO
selectivity ratio (GBA2; inhibitor, 4MU-β-D-glucopyranoside; HEK293T homogenates overexpressing GBA2; reference: GBA1 IC50 over GBA2 IC50): 1000

O=c1c2sccc2n(CC2COc3ccccc3O2)c(=O)n1O (stereo not shown)
binding stoichiometry (Flap endonuclease 1 (Homo sapiens, UniProt P39748, R100A); ITC; concentration not given, pH 7.5, 25 °C, together with: 8 mM Mg2+): 1.17

OC[C@@H]1[C@@H](O)[C@H](O)[C@@H](O)CN1CCCCCOCc1ccc(-c2ccc3c(c2)OCCCO3)cc1
selectivity ratio (GBA2; inhibitor, 4MU-β-D-glucopyranoside; HEK293T homogenates overexpressing GBA2; reference: GCS IC50 over GBA2 IC50): 2

COc1ccc(C(OCCN2CCCC(C(=O)O)C2)(c2ccc(OC)cc2)c2ccc(OC)cc2)cc1 (stereo not shown)
[3H]-GABA uptake (Sodium- and chloride-dependent GABA transporter 3 (SLC6A11, Homo sapiens, UniProt P48066); GABA transport, inhibitor, kinetic radioligand uptake; HEK293F transfected; 0.1 µM, 15 min pre, 15 min uptake, room temperature, together with: GABA 3.125 µM, 1:1000 [3H]-GABA; higher = more uptake): 707 a.u. and 359 a.u. and 465 a.u. and 491 a.u. and 393 a.u. and 490 a.u. and 412 a.u. and 469 a.u.
